Assay results gathered from unrelated publications.
A part holds a random share of what one study measured. Changes are numbered by the printed parent chain.

Study 1 — technique: protein-binding microarray; form: double-stranded DNA, one strand shown; medium: in vitro; concentration: 250 nM; setting: 60-bp whole probe; added: salmon DNA 0.4 mg/ml; reference: random background probes; direction: higher = stronger binding; shared flanks, not repeated: GCCTAGCAC … GTCTTGATTCGCTTGACGCTGCTG
Target: Interferon regulatory factor 5, full length, phosphomimetic (IRF5, Homo sapiens, UniProt Q13568-2, residues 1-514, K96S/S451D/S453D/S456D/S462D)
With `TTCGAACTGAGTCTCGATTAGTGCTAG` the log fluorescence was 0.746 z-score.
The log fluorescence of `TTACGTCTCCTTTTCCTTTAGTGCTAG` is reported as 1.15 z-score.
`TATTATATATTTATGTATACGTGCTAG` has a log fluorescence of 1.09 z-score.
`TCAAGTCTCAAAATTAGACTGTGCTAG` gave a log fluorescence of 0.165 z-score.
With `GACGATATCAGTTTCGACACGTGCTAG` the log fluorescence was 7.63 z-score.
`TTTCTGATCCATTTTGGTTTGTGCTAG` gave a log fluorescence of 5.75 z-score.
The log fluorescence of `TTAGGACTGCTCCTGCTTTAGTGCTAG` is reported as -0.661 z-score.
With `GACGGTTTCCTACTGCTTACGTGCTAG` the log fluorescence was 0.544 z-score.
`GACGGTTTCCGTCTCCTGACGTGCTAG` has a log fluorescence of 0.901 z-score.
For `TAGAACTTCTCCACTGAATGAGTGCTA`, the log fluorescence was 0.162 z-score.
For `GAGGGTATCGGTTTCGGGACGTGCTAG`, the log fluorescence was 7.45 z-score.
`GACGATATCAGTTTCGAGTCGTGCTAG` gave a log fluorescence of 7.26 z-score.
For `TGGTTTTCCTTATTGCTTCCTGTGCTA`, the log fluorescence was 1.59 z-score.
`TCAAATATCTTTGTTGAACTGTGCTAG` gave a log fluorescence of 0.603 z-score.
For `TCATATACCTGTATATCACTGTGCTAG`, the log fluorescence was 0.681 z-score.
`TCACATATAATTTTGTCACTGTGCTAG` has a log fluorescence of 0.692 z-score.
For `TTAGATTTCGGGTATCGATTAGTGCTA`, the log fluorescence was 7.65 z-score.
The log fluorescence of `GGAAGCAGTGAGAAGGTGGCGTGCTAG` is reported as -0.303 z-score.
The log fluorescence of `TTAGGTTTCGTGACTGGGTTAGTGCTA` is reported as 2.26 z-score.

Study 2 — target: CREB3L3, bZIP domain (human); technique: DHFR protein complementation; medium: yeast; reference: wild-type JUN-FOS pair; direction: higher = stronger binding
Setting: single substitutions, most at no-binding floor
Starting sequence: JUN, bZIP domain (human); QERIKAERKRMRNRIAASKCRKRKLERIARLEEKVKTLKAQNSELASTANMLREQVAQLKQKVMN; partner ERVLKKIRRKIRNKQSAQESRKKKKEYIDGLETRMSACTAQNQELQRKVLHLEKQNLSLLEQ
`L38D` gave a binding fitness of -1.48 natural log.
The binding fitness of `L45C` is reported as -1.52 natural log.
`A40W` has a binding fitness of -1.46 natural log.
For `Q55S`, the binding fitness was -1.55 natural log.
`E44A` gave a binding fitness of -1.37 natural log.
With `A49S` the binding fitness was -1.5 natural log.
The binding fitness of `L31R` is reported as -1.52 natural log.
The binding fitness of `L52Q` is reported as -1.53 natural log.
For `Q41S`, the binding fitness was -1.54 natural log.
`I28L` has a binding fitness of -1.41 natural log.
The binding fitness of `I28Q` is reported as -1.38 natural log.
`L38N` gave a binding fitness of -1.51 natural log.
`E33D` gave a binding fitness of -1.42 natural log.
With `K36C` the binding fitness was -1.01 natural log.
With `L38W` the binding fitness was -1.5 natural log.
`N42T` has a binding fitness of -1.5 natural log.
`T37M` gave a binding fitness of -0.778 natural log.
`L38V` gave a binding fitness of -1.49 natural log.
`V56M` gave a binding fitness of -1.43 natural log.
The binding fitness of `A40P` is reported as -1.51 natural log.
`A29M` gave a binding fitness of -1.41 natural log.
`T37H` gave a binding fitness of -1.6 natural log.

Study 3 — technique: RNA Bind-n-Seq; form: RNA; medium: in vitro; concentration: 365 nM; reference: no-protein control; direction: higher = stronger binding
Target: RNA binding protein fox-1 homolog 2, RRM domain, GST-SBP tag (RBFOX2, Homo sapiens, UniProt O43251-10, residues 100-194)
Setting: natural RNA segment, single round, ends assumed
Construct (chain): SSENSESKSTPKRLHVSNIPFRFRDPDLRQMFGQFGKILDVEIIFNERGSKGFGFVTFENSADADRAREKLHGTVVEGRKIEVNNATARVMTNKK
`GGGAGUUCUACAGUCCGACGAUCUGUUUCUUUUUCUGUCUUCUAGACUAAAUAGAGUAUCAUCCAAAUAAUGGGGCCUAUGACUUGAAUGAAUAGAAAUGAAUAAGCUGGUGUUUGUUUUUUCAAAAUGGAAGUGGAAUUCUCGGGUGCCAA` — result for “RBNS enrichment (R)”: 0.43.
Under “RBNS enrichment (R)”, `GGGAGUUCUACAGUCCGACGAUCGGAUCCUGGGCUGGGUGGCCCCUGUCUCGGGGCUUGCCCCACUCUGCCUGCCUGCUGUUGGUCCUCUCUCUGUGGGGCUGAAUUGCCAGGGGCGAGGCCCUUCCUCUUUGUGGAAUUCUCGGGUGCCAA` is recorded as 1.01.
`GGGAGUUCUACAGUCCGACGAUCGUUAUAGAUUUCCUACCUAACCGGGAUGAUGAUGCACAGAACUCUAAAGCCAGUAGUGUGGCAACAGAAUAGCACAGUAUAACUCAGUUGAGACAUGACUUCAAGACUCGUGGAAUUCUCGGGUGCCAA` — result for “RBNS enrichment (R)”: 0.508.
Under “RBNS enrichment (R)”, `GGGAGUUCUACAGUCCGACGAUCGUUCUGGGUGGGGAUAAGGAUGGGAGGAGAAAGGUUGAGACCUUGGUCUGGCUGUACUGGCAACGCGGUGCUGGGCCCAUGUCUCAUACCUUGCCCUCAGCCUAUCCCUGUGGAAUUCUCGGGUGCCAA` is recorded as 0.325.
Under “RBNS enrichment (R)”, `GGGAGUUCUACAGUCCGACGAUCGAUUAUGGAUCAGUUCUGACAUUAAAAUCAUAGUUAAUUGAUGGAUGGUUUUUAUAGUUUGUUGAUAAAGUGGACACAGUAUUGUCUGAGCAGUUAUAUUUUAAUGCAUUUGGAAUUCUCGGGUGCCAA` is recorded as 0.656.
`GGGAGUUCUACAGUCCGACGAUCGAGUUCAUAGAGAACACCAGCACUCUUUGACAAAACUGUGAGUGACCCUUUUUAAACAAUGCUGAGCAGGCCCUGAGCUAUAAUCAACGGUGAGCUUUAAUGUCUAUGCUUGGAAUUCUCGGGUGCCAA`: “RBNS enrichment (R)” 0.444.
For `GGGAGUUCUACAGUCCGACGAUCUUGCUGAUCCCUGGCUUGGAGCUCCUUGGGGGCCGGCAGGCCUCGACCCCCACCCUAGGGAAUGCAGAGCCUCUCCGCAUGUGUGCGCGUGGCCGUGUCUGUGUAUUUCUUGGAAUUCUCGGGUGCCAA`, “RBNS enrichment (R)” read 0.513.
`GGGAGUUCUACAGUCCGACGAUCUACUGGACAUGUCAGCAUCAACCCUCUCAAAAUAGCUUGGUCACUUUAUGAAGGGGCGUUUUAAAGUUGUUGUUUAGCAGUGACAUUUAAUAUGGUCCAAUUGCUUUUCUUGGAAUUCUCGGGUGCCAA` — result for “RBNS enrichment (R)”: 0.385.

Study 4 — technique: universal PBM; form: double-stranded DNA, one strand shown; medium: in vitro; concentration: 600 nM; direction: higher = stronger binding
Target: Sal-like protein 4, full length isoform A (SALL4, Homo sapiens, UniProt Q9UJQ4, residues 1-1053)
Chain of UniProt Q9UJQ4 (whole entry, looked up): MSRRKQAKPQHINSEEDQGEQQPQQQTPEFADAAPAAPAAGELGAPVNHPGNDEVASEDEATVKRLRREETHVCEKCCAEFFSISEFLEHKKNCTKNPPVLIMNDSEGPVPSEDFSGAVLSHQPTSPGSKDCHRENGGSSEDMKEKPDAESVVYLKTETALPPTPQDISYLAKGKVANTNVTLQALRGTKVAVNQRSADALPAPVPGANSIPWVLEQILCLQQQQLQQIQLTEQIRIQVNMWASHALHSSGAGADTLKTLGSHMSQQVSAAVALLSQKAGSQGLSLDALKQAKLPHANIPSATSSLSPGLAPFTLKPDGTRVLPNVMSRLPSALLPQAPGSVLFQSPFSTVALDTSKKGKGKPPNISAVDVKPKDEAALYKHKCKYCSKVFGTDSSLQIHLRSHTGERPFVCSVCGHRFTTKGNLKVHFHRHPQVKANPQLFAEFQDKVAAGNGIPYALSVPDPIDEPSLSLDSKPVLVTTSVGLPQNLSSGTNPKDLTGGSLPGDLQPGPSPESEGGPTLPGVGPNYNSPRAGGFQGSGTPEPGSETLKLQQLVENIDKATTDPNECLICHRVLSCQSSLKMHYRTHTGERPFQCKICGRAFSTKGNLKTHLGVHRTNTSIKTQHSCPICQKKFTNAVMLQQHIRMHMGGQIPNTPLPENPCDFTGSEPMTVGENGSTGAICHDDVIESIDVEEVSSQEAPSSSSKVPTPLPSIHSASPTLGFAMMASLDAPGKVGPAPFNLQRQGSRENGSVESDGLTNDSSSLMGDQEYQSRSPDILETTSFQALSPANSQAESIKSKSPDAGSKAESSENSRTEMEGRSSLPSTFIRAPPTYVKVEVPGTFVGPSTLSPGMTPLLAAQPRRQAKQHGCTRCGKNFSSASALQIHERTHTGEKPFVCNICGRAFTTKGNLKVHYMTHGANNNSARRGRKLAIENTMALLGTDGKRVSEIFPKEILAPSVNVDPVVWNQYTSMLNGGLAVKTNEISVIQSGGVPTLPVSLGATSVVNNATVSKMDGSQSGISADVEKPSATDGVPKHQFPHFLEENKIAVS
Setting: 8-mer, flanks averaged, mean of replicates
`CCGATTTC` gave an E-score of -0.0822.
`AGACAGAT` has an E-score of 0.159.
`AGGGGAGA` gave an E-score of -0.213.
`TCCCGCCA` has an E-score of -0.165.
The E-score of `AATTAAGC` is reported as 0.221.
The E-score of `AACGATGC` is reported as -0.0757.
The E-score of `AACTGAAC` is reported as -0.062.
For `AAAGTTCG`, the E-score was -0.0147.
`CATAGTAC` has an E-score of -0.0175.
The E-score of `CAGACCTA` is reported as 0.0261.
With `ATGCACTA` the E-score was 0.161.
`CGGTCAAC` has an E-score of -0.112.
`ACTCAAGT` gave an E-score of -0.0227.
For `CGGTCCAG`, the E-score was -0.362.
For `ATCTGCGG`, the E-score was 0.0257.
For `AGTCAGCA`, the E-score was 0.061.
The E-score of `ACTGGGGG` is reported as -0.325.
The E-score of `CGCAATAG` is reported as 0.0227.
`CGACTCAG` gave an E-score of -0.122.
`AGGCGAAT` gave an E-score of 0.102.
For `CATCACAA`, the E-score was 0.142.
For `CAGGCCAA`, the E-score was -0.238.
`ATCCGGCC` has an E-score of -0.321.
The E-score of `CTAATCGC` is reported as -0.06.
`CCTCACAC` gave an E-score of -0.0507.

A few entries again (study 1):
`TATTATATATTTATGTATACGTGCTAG` has a log fluorescence of 1.09 z-score.
`TCAAGTCTCAAAATTAGACTGTGCTAG` gave a log fluorescence of 0.165 z-score.
With `GACGATATCAGTTTCGACACGTGCTAG` the log fluorescence was 7.63 z-score.
`TTTCTGATCCATTTTGGTTTGTGCTAG` gave a log fluorescence of 5.75 z-score.
The log fluorescence of `TTAGGACTGCTCCTGCTTTAGTGCTAG` is reported as -0.661 z-score.
With `GACGGTTTCCTACTGCTTACGTGCTAG` the log fluorescence was 0.544 z-score.
`GACGGTTTCCGTCTCCTGACGTGCTAG` has a log fluorescence of 0.901 z-score.
